Results collected from several papers.
“And” joins repeats or separate records; there may be more than shown. ± marks the error that the study gave.
UniProt Q9Y6L6, sequence (whole entry, looked up): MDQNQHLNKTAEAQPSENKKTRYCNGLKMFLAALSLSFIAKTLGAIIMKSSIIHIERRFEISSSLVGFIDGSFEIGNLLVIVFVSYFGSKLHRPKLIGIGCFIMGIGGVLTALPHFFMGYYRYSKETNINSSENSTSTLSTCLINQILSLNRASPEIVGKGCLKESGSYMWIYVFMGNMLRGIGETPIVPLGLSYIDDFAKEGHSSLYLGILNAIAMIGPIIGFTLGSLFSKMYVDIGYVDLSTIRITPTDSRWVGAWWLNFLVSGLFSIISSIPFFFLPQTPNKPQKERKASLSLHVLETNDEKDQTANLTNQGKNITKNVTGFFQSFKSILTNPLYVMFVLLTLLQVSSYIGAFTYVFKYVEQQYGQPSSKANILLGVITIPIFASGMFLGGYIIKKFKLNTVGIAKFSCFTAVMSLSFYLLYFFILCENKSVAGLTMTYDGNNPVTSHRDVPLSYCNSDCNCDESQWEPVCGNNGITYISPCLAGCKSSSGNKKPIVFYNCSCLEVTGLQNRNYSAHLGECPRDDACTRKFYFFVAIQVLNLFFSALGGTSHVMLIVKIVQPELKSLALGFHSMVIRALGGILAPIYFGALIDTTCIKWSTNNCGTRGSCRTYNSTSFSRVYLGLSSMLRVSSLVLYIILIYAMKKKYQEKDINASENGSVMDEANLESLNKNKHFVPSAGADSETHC

CN[C@](C)(C[18F])C(=O)O — tracer uptake (DU-145 tumour model; host not given, blood; 1 h, tumour-bearing): 1.1 %ID/g
N[C@]1(c2ccccc2Cl)CCC[C@H](O)C1=O — brain to plasma ratio (Wistar rat; intravenous, 20 mg/kg, over 60 min): ~2 fold
COc1ccc(CNc2nc(N3CCC[C@H]3CO)ncc2C(=O)NN)cc1Cl — revertant count (Salmonella typhimurium; TA97a; 500 µg/plate, 48 h, together with: rat liver S9): 185 ± 9
CN(C)CC1CCCCC1(O)c1cccc(O)c1 (centres unmarked) — Papp B→A (Caco-2; 50 µM, 3 h, pH 7.4): 17.4 ×10⁻⁶ cm/s
O=C(O)CCC(NP(=O)(O)OCCC[C@@H](NC(=O)CCC(NC(=O)CCCCCNC(=O)CCCCCNC(=O)c1ccc([18F])cc1)C(=O)O)C(=O)O)C(=O)O (some centres unmarked) — tracer uptake (PC-3 tumour model; host not given, kidney; intravenous, 2 h, tumour-bearing): 4.44 %ID/g
COc1cc(C(=O)NCCOCCOCCOCCNC(=O)c2ccc([18F])nc2)ccc1NC(=O)C1NC(CC(C)(C)C)C(C#N)(c2ccc(Cl)cc2F)C1c1cccc(Cl)c1F (centres unmarked) — tracer uptake (HepG2 tumour model; host not given, liver; 4 h, tumour-bearing): 1.24 %ID/g
CC[C@H](C)[C@H](NC(=O)[C@H](CC(=O)O)NC(=O)[C@@H](NC(=O)[C@@H]1CCCN1C(=O)[C@@H](N)CCCNC(=N)N)[C@@H](C)O)C(=O)N[C@@H](CCCCN)C(=O)N[C@H]1CSSC[C@@H]2NC(=O)[C@H](CCCNC(=N)N)NC(=O)CNC(=O)[C@H](CC(N)=O)NC(=O)[C@H]([C@@H](C)O)NC(=O)[C@H](CCCCN)NC(=O)CNC(=O)[C@H](Cc3ccccc3)NC(=O)[C@H](CCCNC(=N)N)NC(=O)[C@H](CO)NC(=O)[C@H](CCCCN)NC(=O)[C@@H]3CSSC[C@@H](C(=O)N[C@@H](Cc4ccccc4)C(=O)O)NC(=O)[C@H](CC(=O)O)NC(=O)[C@H](CSSC[C@H](NC(=O)[C@H](CCC(N)=O)NC(=O)[C@H](Cc4ccc(O)cc4)NC(=O)[C@H](CO)NC(=O)[C@H](CCC(=O)O)NC(=O)[C@H](CO)NC1=O)C(=O)N[C@@H](Cc1ccccc1)C(=O)N1CCC[C@H]1C(=O)N[C@@H](C(C)C)C(=O)N3)NC(=O)[C@H](Cc1ccccc1)NC(=O)CNC(=O)[C@H](CC(N)=O)NC(=O)[C@H](C(C)C)NC2=O — IC50 (Voltage-gated inwardly rectifying potassium channel KCNH2 (KCNH2, Homo sapiens, UniProt Q12809, S631C); ion current, inhibitor, two-electrode voltage clamp; pH 7.4, oocytes): 0.041 µM
COC(=O)CC1C2CCCN3CCCC(CN1Cc1ccc(Cl)cc1)C23 (centres unmarked) — CC50 (HEK293T): > 200 µM
CC[C@H](C)[C@H](NC(=O)[C@H](CCC(=O)O)NC(=O)CNC(=O)[C@@H](NC(=O)[C@H](CC(C)C)NC(=O)[C@H](CC(C)C)NC(=O)[C@H](CC(C)C)NC(=O)[C@H](CC(C)C)NC(=O)[C@H](CS)NC(=O)[C@H](CO)NC(=O)[C@H](Cc1ccccc1)NC(=O)CNC(=O)[C@H](CCCNC(=N)N)NC(=O)[C@@H]1CCCN1C(=O)[C@H](C)NC(=O)[C@H](CCSC)NC(=O)CNC(=O)CNC(=O)[C@H](Cc1ccccc1)NC(=O)[C@H](CCCCN)NC(=O)[C@H](Cc1c(C)cc(O)cc1C)NC(=O)[C@H](N)CCCNC(=N)N)[C@@H](C)O)C(=O)N[C@@H](CC(=O)O)C(=O)N[C@@H](CC(C)C)C(=O)N1CCC[C@H]1C(=O)N[C@H](C(=O)N[C@@H](CCCCN)C(=O)N[C@@H](CCCNC(=N)N)C(=O)N[C@@H](CCCNC(=N)N)C(=O)N[C@@H](C)C(N)=O)C(C)C — cellular uptake (bEnd.3; 10 µM, 2 h, FITC-labelled; reference: SS-31): 4.2 fold
O=C(O)CCC(NP(=O)(O)OCCC[C@@H](NC(=O)CCC(NC(=O)c1ccc([18F])cc1)C(=O)O)C(=O)O)C(=O)O (some centres unmarked) — tracer uptake (PC-3 tumour model; host not given, heart; intravenous, 2 h, tumour-bearing): 0.36 %ID/g
CCC(=O)N(C)c1ccc(Cl)c(Cl)c1 — revertants (Salmonella typhimurium; Ames test; TA1535; 0.05 mg/plate, without S9 activation): 15 ± 4.7 revertants/plate
O=C(O)CCC(NP(=O)(O)OCCC[C@@H](NC(=O)CCC(NC(=O)CCCCCNC(=O)c1ccc([18F])cc1)C(=O)O)C(=O)O)C(=O)O (some centres unmarked) — tracer uptake (PC-3 tumour model; host not given, spleen; intravenous, 2 h, tumour-bearing): 1.38 %ID/g
CC(CCC(=O)NCC(=O)O)C1CCC2C3C(O)CC4CC(OC5OC(C(=O)O)C(O)C(O)C5O)CCC4(C)C3CCC12C (centres unmarked) — IC50 (Solute carrier organic anion transporter family member 1B1 (SLCO1B1, Homo sapiens, UniProt Q9Y6L6); transporter uptake, inhibitor): 16 µM and ≤ 28 µM
CC[C@H](C)C(=O)N1CCC(NC(=O)Nc2ccc(OC(F)(F)F)c(F)c2)CC1 — Cmax (human, plasma; oral, 8 mg, single dose, healthy volunteers): 82.7 ng/mL

For quick reference, copied from above:
CC[C@H](C)[C@H](NC(=O)[C@H](CCC(=O)O)NC(=O)CNC(=O)[C@@H](NC(=O)[C@H](CC(C)C)NC(=O)[C@H](CC(C)C)NC(=O)[C@H](CC(C)C)NC(=O)[C@H](CC(C)C)NC(=O)[C@H](CS)NC(=O)[C@H](CO)NC(=O)[C@H](Cc1ccccc1)NC(=O)CNC(=O)[C@H](CCCNC(=N)N)NC(=O)[C@@H]1CCCN1C(=O)[C@H](C)NC(=O)[C@H](CCSC)NC(=O)CNC(=O)CNC(=O)[C@H](Cc1ccccc1)NC(=O)[C@H](CCCCN)NC(=O)[C@H](Cc1c(C)cc(O)cc1C)NC(=O)[C@H](N)CCCNC(=N)N)[C@@H](C)O)C(=O)N[C@@H](CC(=O)O)C(=O)N[C@@H](CC(C)C)C(=O)N1CCC[C@H]1C(=O)N[C@H](C(=O)N[C@@H](CCCCN)C(=O)N[C@@H](CCCNC(=N)N)C(=O)N[C@@H](CCCNC(=N)N)C(=O)N[C@@H](C)C(N)=O)C(C)C — cellular uptake (bEnd.3; 10 µM, 2 h, FITC-labelled; reference: SS-31): 4.2 fold
O=C(O)CCC(NP(=O)(O)OCCC[C@@H](NC(=O)CCC(NC(=O)c1ccc([18F])cc1)C(=O)O)C(=O)O)C(=O)O (some centres unmarked) — tracer uptake (PC-3 tumour model; host not given, heart; intravenous, 2 h, tumour-bearing): 0.36 %ID/g
